Results of several laboratories.
Each line is one published result; not all experiments were run side by side. ± gives the spread as reported.
C5a: C5a (Homo sapiens, UniProt P01031)
Chain of UniProt P01031 (whole entry, looked up): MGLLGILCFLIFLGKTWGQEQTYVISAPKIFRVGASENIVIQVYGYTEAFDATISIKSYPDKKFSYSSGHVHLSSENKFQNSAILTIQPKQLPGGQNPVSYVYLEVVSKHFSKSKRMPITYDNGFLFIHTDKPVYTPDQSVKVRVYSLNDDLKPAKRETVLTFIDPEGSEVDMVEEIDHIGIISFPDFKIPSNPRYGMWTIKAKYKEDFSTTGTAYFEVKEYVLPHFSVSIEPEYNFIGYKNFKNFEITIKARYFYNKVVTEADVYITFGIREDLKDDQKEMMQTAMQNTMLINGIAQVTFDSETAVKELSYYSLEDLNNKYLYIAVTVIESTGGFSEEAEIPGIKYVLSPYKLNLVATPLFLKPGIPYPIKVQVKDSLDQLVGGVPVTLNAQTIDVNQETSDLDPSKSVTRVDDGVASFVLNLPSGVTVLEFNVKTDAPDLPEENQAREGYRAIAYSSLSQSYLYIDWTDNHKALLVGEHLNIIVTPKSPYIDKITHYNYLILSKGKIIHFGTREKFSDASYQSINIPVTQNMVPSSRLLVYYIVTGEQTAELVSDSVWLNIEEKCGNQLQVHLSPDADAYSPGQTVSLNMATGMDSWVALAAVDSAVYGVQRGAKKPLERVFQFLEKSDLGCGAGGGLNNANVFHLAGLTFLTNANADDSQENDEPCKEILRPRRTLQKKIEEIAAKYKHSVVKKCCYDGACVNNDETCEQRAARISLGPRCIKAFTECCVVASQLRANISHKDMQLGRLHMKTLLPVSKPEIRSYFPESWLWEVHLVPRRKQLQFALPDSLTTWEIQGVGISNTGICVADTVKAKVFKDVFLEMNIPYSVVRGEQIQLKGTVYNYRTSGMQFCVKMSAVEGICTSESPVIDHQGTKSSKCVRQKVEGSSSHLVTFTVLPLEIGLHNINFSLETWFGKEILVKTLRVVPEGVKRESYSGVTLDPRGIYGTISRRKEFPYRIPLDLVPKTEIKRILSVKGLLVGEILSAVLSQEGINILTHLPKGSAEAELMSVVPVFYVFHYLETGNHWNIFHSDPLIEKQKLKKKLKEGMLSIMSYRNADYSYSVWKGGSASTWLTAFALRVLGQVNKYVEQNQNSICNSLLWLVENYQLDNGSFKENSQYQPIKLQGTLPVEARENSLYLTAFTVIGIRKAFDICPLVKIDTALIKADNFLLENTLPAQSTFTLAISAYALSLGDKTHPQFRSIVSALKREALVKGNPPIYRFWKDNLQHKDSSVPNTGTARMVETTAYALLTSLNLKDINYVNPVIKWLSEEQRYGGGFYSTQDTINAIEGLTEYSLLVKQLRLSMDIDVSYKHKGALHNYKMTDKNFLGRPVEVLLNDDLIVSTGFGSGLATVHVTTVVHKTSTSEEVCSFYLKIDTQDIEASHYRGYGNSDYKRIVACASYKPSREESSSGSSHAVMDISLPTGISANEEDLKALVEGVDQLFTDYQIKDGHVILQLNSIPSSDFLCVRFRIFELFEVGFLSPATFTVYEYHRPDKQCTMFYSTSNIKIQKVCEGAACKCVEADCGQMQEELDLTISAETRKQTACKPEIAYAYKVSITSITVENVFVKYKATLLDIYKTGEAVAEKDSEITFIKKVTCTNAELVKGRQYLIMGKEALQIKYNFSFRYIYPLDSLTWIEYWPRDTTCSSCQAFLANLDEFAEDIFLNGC
RNA polymerase holoenzyme sigma70: RNA polymerase holoenzyme sigma70 (Escherichia coli)
T1: MBNL1 1-382 (Homo sapiens); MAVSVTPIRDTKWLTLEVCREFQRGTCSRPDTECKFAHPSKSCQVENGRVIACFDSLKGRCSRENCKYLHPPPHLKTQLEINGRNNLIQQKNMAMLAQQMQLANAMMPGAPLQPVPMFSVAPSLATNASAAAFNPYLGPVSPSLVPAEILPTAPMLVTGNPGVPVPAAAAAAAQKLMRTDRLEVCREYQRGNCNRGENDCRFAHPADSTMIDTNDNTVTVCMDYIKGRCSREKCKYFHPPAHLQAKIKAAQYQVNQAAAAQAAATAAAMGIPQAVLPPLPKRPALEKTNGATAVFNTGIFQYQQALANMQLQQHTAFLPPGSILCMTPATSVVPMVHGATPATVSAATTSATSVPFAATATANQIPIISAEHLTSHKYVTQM
B1: UGT1A9 (Homo sapiens, UniProt O60656); chain GKLLVVPMDGSHWFTMRSVVEKLILRGHEVVVVMPEVSWQLGRSLNCTVKTYSTSYTLEDLDREFKAFAHAQWKAQVRSIYSLLMGSYNDIFDLFFSNCRSLFKDKKLVEYLKESSFDAVFLDPFDNCGLIVAKYFSLPSVVFARGILCHYLEEGAQCPAPLSYVPRILLGFSDAMTFKERVRNHIMHLEEHLLCHRFFKNALEIASEILQTPVTEYDLYSHTSIWLLRTDFVLDYPKPVMPNMIFIGGINCHQGKPLPMEFEAYINASGEHGIVVFSLGSMVSEIPEKKAMAIADALGKIPQTVLWRYTGTRPSNLANNTILVKWLPQNDLLGHPMTRAFITHAGSHGVYESICNGVPMVMMPLFGDQMDNAKRMETKGAGVTLNVLEMTSEDLENALKAVINDKSYKENIMRLSSLHKDRPVEPLDLAVFWVEFVMRHKGAPHLRPAAHDLTWYQYHSLDVIGFLLAVVLTVAFITFKCCAYGYRKCLGKKGRVKKAHKSKTH
Chain of UniProt O66659 (whole entry, looked up): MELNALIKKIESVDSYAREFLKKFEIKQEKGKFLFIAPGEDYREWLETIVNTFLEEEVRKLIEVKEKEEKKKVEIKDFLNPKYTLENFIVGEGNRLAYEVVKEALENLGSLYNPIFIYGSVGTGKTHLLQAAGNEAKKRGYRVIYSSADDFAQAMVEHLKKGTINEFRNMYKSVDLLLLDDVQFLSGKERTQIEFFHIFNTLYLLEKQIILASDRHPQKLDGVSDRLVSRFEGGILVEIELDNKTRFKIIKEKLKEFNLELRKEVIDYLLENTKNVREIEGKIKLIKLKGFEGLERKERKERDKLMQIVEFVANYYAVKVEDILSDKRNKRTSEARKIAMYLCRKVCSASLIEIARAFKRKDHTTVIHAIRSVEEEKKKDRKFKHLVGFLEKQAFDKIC
Chain of UniProt Q9BQB4 (whole entry, looked up): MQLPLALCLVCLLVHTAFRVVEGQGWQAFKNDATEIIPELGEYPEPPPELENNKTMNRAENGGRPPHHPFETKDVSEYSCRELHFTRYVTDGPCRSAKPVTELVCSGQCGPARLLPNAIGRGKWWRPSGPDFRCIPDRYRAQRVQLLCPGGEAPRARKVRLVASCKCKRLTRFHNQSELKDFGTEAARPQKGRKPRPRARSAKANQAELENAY
Chain of UniProt P09874 (whole entry, looked up): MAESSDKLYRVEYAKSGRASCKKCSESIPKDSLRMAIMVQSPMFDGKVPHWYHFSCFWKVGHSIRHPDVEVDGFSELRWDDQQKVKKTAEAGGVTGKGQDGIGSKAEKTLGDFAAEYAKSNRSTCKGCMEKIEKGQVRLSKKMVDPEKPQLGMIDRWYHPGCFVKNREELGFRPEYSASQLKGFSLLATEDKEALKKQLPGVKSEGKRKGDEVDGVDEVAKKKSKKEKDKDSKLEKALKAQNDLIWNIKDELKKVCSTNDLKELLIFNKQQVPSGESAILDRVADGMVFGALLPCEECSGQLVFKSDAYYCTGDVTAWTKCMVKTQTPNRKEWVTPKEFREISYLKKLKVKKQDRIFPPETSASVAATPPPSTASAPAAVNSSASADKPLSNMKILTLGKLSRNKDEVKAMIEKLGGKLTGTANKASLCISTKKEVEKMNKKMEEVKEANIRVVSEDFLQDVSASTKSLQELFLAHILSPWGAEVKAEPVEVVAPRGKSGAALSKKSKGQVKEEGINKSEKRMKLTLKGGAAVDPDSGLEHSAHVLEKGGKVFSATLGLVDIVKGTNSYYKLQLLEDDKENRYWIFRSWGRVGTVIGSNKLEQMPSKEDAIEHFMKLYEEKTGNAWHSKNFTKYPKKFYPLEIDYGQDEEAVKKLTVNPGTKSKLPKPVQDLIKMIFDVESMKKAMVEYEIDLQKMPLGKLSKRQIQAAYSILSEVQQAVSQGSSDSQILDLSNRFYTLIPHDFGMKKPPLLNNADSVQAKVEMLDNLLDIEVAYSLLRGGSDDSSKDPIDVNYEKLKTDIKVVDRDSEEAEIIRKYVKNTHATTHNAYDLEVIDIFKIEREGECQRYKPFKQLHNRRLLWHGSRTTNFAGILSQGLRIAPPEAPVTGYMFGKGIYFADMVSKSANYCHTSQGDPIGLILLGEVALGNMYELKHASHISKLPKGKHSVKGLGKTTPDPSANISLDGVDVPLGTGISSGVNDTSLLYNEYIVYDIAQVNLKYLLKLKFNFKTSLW
Chain of UniProt Q96FI4 (whole entry, looked up): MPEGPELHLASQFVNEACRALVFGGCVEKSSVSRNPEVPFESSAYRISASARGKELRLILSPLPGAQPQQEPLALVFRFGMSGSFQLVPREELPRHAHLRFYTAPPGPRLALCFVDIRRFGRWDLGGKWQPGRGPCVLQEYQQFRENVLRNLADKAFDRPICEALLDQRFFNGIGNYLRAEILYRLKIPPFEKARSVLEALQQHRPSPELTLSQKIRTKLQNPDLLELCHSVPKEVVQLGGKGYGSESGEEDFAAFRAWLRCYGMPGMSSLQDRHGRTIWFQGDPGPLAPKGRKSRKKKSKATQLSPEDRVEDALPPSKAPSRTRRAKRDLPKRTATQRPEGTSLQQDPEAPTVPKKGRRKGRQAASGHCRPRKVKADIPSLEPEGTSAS
Chain of UniProt Q8H1D4 (whole entry, looked up): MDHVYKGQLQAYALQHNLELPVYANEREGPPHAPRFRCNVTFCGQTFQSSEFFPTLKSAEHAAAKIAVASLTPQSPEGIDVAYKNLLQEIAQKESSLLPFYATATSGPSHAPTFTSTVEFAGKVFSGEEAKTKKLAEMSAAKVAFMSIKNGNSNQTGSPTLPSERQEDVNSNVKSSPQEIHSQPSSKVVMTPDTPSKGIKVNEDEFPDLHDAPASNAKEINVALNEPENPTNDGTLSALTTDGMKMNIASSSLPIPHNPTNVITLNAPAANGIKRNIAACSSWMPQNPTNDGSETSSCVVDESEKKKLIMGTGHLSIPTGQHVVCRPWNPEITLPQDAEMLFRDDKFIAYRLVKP

With `GCGAUGUGGUGGUGAAGGGUUGUUGGGUGUCGACGCACGC (L-RNA; terminal stem, six DNA residues)` the Kd was 0.4 nM (C5a; SPR).
`GAGUUGAGUUGAGUUGAGUUGAGUUGAGUUGAGUUGAGUUGAGUUGAGUUGAGUU (ssRNA; single strand)` has a Kd of 158 ± 18 nM (mtrB full length assumed T30L (Bacillus subtilis, UniProt P19466); filter binding; with: L-tryptophan 1 mM).
For `GCCGAUGUGGUGGUGAAGGGUUGUUGGGUGUCGACGCACGGC (L-RNA; terminal stem, six DNA residues)`, the Kd was 0.3 nM (C5a; SPR).
For `GCGGACGGACAGAGAGUGCAACCUGCCGUGCCGC (ssRNA; 2'-F pyrimidines, 5' thiol-C6)`, the Kd was 264 ± 30.3 nM (ITGA5/ITGB1 on cells (Mus musculus); flow cytometry; MB49-Luc; MgCl2 1 mM, CaCl2 0.5 mM, not purified).
`TGGCGACGGCAGCGAGGCTTTTTTTTTTTTTTTTTTTTTTTTTTTTTTTTTTTTTTTTTTTTTTTTTTTTTT / GCCTCGCTGCCGTCGCCA (DNA duplex; 18 bp, 3' overhang, C6-amino-dT)` has a Kd of 5000 nM (dnaA 77-399 (Aquifex aeolicus, UniProt O66659); smFRET; with: ADP-BeF3 1 mM).
`CAGCAGCAGCAGCAGCAGCAGCAGCAGCAGCAGCAGCAGCAGCAGCAGCAGCAGCAGCAGCAGCAGCAGCAGCAGCAGCAGCAGCAGCAGCAGCAGCAGCAGCAGCAGCAGCAGCAGCAGCAGCAGCAGCAGCAGCAGCAGCAGCAGCAGCAGCAGCAGCAG (structured RNA)` gave a Kd of 11.2 ± 1.5 nM (T1, MBNL1 1-382 (Homo sapiens); filter binding).
`CGCTAGGATCNGGCCCCGCC / GGCGGGGCCGGATCCTAGCG (dsDNA; blunt, tetrahydrofuran abasic site opposite G)` gave a Kd of 18 nM (NEIL1 full length assumed (Homo sapiens, UniProt Q96FI4); EMSA; apparent, cooperative fit).
`GCCUGAUGUGGUGGUGAAGGGUUGUUGGGUGUCGACGCACAGGC (L-RNA; terminal stem)` gave a Kd of 1.36 nM (C5a; SPR).
`GGACAGGACCACACCCAGCGCGGTCGGCGGGTGGGCGGGGGGAGAACGAGGTAGGGGTCAGGCTCCTGTGTGTCGCTTTGT (ssDNA)` has a Kd of 295 nM (LDLR fragment (Homo sapiens); flow cytometry; Huh-7; in cells, tRNA competitor, not purified).
With `CGGGGNGTGGGTTCGTCGTTAGCTTGATTTGGCAGCTGCC (XNA; 5-quinoline nucleotide position 6)` the Kd was 3.86 nM (SOST 24-213 (Homo sapiens, UniProt Q9BQB4); BLI).
With `B1 (UGT1A9)` the Vmax/Km was 417 µL/min/mg (Cc1ccc(C(=O)c2cc(O)c(O)c([N+](=O)[O-])c2)cc1; steady-state kinetics; pH 7.4, 37 °C).
`GCCUGAUGUGGUGGUGAAGGGUUGUUGGGUGUCGACGCACAGGC (L-RNA; terminal stem, six DNA residues)` gave a Kd of 0.36 nM (C5a; SPR).
The Kd of `ACCGACCGTGCTGGACTCATCTCGCTTTTTTCACGGTCCACACTACTATGAGCGAGCCTGGCG (ssDNA; stem-loop)` is reported as 15.4 nM (CD274 fragment (Homo sapiens); flow cytometry; MDA-MB-231 PD-L1 OE; 1 h, 4 °C, not purified).
The Kd of `GAGGCCCTTTCGTCTTCAAGAATTCTATTTGACAAAAATGGGCTCGTGTTGTACAATAAATGTGTCTAAGCTTGGGTCCCACCTGAC (dsDNA (Bacillus subtilis); blunt, A replaced by 7-deazaadenine)` is reported as 35.5 ± 2.9 nM (RNA polymerase holoenzyme sigma70; EMSA; double-stranded DNA, one strand shown).
With `CAACTGAGACCATGTACCCAGTTCGAATCGGATGTATATATCTGACACGTGCCTGGAGACTAGGGAGTAATCCCCTTGGCGGTTAAAACGCGGGGGACAGCGCGTACGTGCGTTTAAGCGGTGCTAGAGCTGTCTACGACCAATTGAGCGGCCTCGGCACCGGGATTCTCGATAACTCAGCAATAGTGGGTCTCA / ACCATGAGACCCACTATTGCTGAGTTATCGAGAATCCCGGTGCCGAGGCCGCTCAATTGGTCGTAGACAGCTCTAGCACCGCTTAAACGCACGTACGCGCTGTCCCCCGCGTTTTAACCGCCAAGGGGATTACTCCCTAGTCT / CCAGGCACGTGTCAGATATATACATCCGATTCGAACTGGGTACATGGTCTCA (dsDNA; nucleosome, nick with 5'-OH)` the Kd was 4 ± 0.5 nM (PARP1 full length assumed (Homo sapiens, UniProt P09874); optical tweezers; single molecule, not purified, with: force 4 pN).
For `TGCTGCCATCTTATATTTTCTATACAAAAGTATAGAAAATATAAGATGGCAGCAGCATCTTGATGCGAGGACGTCAAAAGACGTCCTCGCATCAAGATGC (dsDNA; double hairpin dumbbell, nick, AAAA loops)`, the Kd was 68.4 ± 3.06 nM (SPO11/TOP6BL (Mus musculus); EMSA; without Mg2+).
With `GAGGCCCTTTCGTCTTCAAGAATTCTATTTGACAAAAATGGGCTCGTGTTGTACAATAAATGTGTCTAAGCTTGGGTCCCACCTGAC (dsDNA (Bacillus subtilis); blunt)` the Kd was 30.6 ± 3 nM (RNA polymerase holoenzyme sigma70; EMSA; double-stranded DNA, one strand shown).
`UGAGGUAGUAGGUUGUAUAGUU / CUAUACAACCUACUACCUCANN (dsRNA; 3' overhang 2 nt)` has a Kd of 2400 ± 300 nM (DBR4 1-153 (Arabidopsis thaliana, UniProt Q8H1D4); ITC; averaged single site).
`GACGTCCTCGCATCAAGATGCTGCTGCCATCTTATATTTTCTATACAATAAGTATAGAAAATATAAGATGGCAGCAGCATCTTGATGCGAGGACGTC (dsDNA; hairpin, AATAA loop, blunt end)` has a Kd of 47.8 ± 2.14 nM (SPO11/TOP6BL (Mus musculus); EMSA; without Mg2+).

Some of these lines once more:
`CAGCAGCAGCAGCAGCAGCAGCAGCAGCAGCAGCAGCAGCAGCAGCAGCAGCAGCAGCAGCAGCAGCAGCAGCAGCAGCAGCAGCAGCAGCAGCAGCAGCAGCAGCAGCAGCAGCAGCAGCAGCAGCAGCAGCAGCAGCAGCAGCAGCAGCAGCAGCAGCAG (structured RNA)` gave a Kd of 11.2 ± 1.5 nM (T1, MBNL1 1-382 (Homo sapiens); filter binding).
`CGCTAGGATCNGGCCCCGCC / GGCGGGGCCGGATCCTAGCG (dsDNA; blunt, tetrahydrofuran abasic site opposite G)` gave a Kd of 18 nM (NEIL1 full length assumed (Homo sapiens, UniProt Q96FI4); EMSA; apparent, cooperative fit).
